Results collected from several papers.
Every numbered part comes from another study and shows a few of its results, in no order.

Set 1
Target: Sal-like protein 4, full length isoform B (SALL4, Homo sapiens, UniProt Q9UJQ4-2, residues 1-616)
Method: universal PBM
Molecule type: double-stranded DNA, one strand shown
Matrix: in vitro
Tested at: not given
Setting: 8-mer, flanks averaged, mean of replicates
Direction: higher = stronger binding
Oligonucleotide	E-score
CCCGCGGA	-0.238
CCGATGGA	-0.301
ACGCGCTC	-0.247
AGACCGAC	-0.318
CCCAGAGG	-0.279
ACCACGCT	-0.135
CCAGCAAC	-0.126
AAGCGGCT	-0.287
CACACGGA	-0.16
GAGCGCTC	-0.26
ACCCTAGC	-0.17
AGTAAGAG	0.0157
CACGCATG	-0.137
ATCTTAGA	0.0293
CTATAGGC	-0.0309
CGTTATAA	0.181
CCGTTCGA	-0.0596
CACCCGCA	-0.165

Set 2
Target: Ras GTPase-activating protein-binding protein 1, full length (G3BP1, Homo sapiens, UniProt Q13283)
Sequence of UniProt Q13283 (whole entry, looked up): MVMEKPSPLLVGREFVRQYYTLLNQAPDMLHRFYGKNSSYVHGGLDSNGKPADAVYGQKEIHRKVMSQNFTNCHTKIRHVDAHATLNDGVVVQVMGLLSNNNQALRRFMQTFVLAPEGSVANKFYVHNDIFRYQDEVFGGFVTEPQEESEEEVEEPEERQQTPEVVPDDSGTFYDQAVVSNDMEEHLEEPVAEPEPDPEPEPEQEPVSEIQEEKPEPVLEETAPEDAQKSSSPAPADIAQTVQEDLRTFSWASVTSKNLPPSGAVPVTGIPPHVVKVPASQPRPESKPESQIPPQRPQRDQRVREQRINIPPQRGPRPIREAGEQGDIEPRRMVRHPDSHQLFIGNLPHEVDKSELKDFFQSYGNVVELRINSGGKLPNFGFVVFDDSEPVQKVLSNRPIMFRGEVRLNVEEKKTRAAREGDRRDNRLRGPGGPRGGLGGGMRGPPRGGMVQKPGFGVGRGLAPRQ
Method: RNA Bind-n-Seq
Molecule type: RNA
Matrix: in vitro
Tested at: 200 nM
Setting: whole 134-nt RNA, ends assumed
With: 150 mM LiCl
Baseline: input library
Direction: higher = stronger binding
Each molecule: 7-deaza-guanosine replaces G
All sequences stand within: GGGAGUUCUACAGUCCGACGAUC … UGGAAUUCUCGGGUGUCAAGG
Oligonucleotide	log2 enrichment
ACCAUUCAGGUGGGCAUCUUUGGGAAGUGGGGCAAGGGGGGGAUAGGGAGGGGGGUAACACUUUGGGAACAGGUGGUCCCAGGUCGUUUC	0.413
ACCAUGCAGGUGGGCAUCUUUGGGAAGUGGGGCAAGGGGGGGAUAGGGAGGGGGGUAACACUUUGGGAAUAGGUGGUCCCAGGUCGUUUC	-0.00933
AUUUGUACACAGACAGGGAAACUGGCAAGCUGAAGGGAGAGGCAACGGUCUCUUUUGAUGACCCACCUUCAGCUAAAGCAGCUAUUGACU	-0.209
UCCUGUGCUACACAUCGUAUGUACCGAAUCAAACCCCCCCAAACCCAAAUUUUUUUAAAAAAGUAUUAUGUUACGCCGUUCGGAUCUGCA	1.23
UCCUCAAGUCCUGUGCUACACAUCGUAUGUACCGAAUCGGGAGGGAGGAGGGAAAGUAUUAUGUUACGCCGUUCGGAUCUGCACUUCCAG	0.301
AAGUCCUGUGCUACACAUCGUAUGUACCGAAUCGGUUUUUUUGGAAAGGUUUUUGGAAAGUAUUAUGUUACGCCGUUCGGAUCUGCACUU	-2.18
AAGUCCUGUGCUACACAUCGUAUGUACCGAAUCGGGUUUUGGUUUUGGGGUUUUGGAAAGUAUUAUGUUACGCCGUUCGGAUCUGCACUU	-0.373
ACCAUGCAGGUGGGCAUCUUUGGGAAGUGGGGCAAGGGGGGGAUAGGGGGGGGGGUAACACUUUGGGAACAGGUGGUCCCAGGUCGUUUC	-0.144
UCAAGUCCUGUGCUACACAUCGUAUGUACCGAAUCGGUUUUUGGAAAGGAAAGGAAAGUAUUAUGUUACGCCGUUCGGAUCUGCACUUCC	-0.219
UAGGUAAGAAAGUACUCAUUGUCUAUGCACACCAGGAACCCAAGUCUUUCAACGGAUCCUUGAAGAAUGUGGCUGUAGAUGAACUGAGCA	-0.705
CAAGUCCUGUGCUACACAUCGUAUGUACCGAAUCGGGUUGGGGUUGGGGUUGGGGAAAGUAUUAUGUUACGCCGUUCGGAUCUGCACUUC	0.234

Set 3
Target: Prothrombin, mature alpha-thrombin (F2, Homo sapiens, UniProt P00734)
Method: aptamer microarray, sandwich
Molecule type: DNA with 2'F-ANA
Matrix: in vitro
Tested at: 200 nM
Setting: whole 15-mer aptamer, many near background
With: Cy3 exosite-II aptamer, 400 nM
Direction: higher = stronger binding
Oligonucleotide: GGTTGGTGTGGTTGG
Modification	mean fluorescence intensity
2'F-ANA at 3 4 6 7 8 10 12 15	303 a.u.
2'F-ANA at 1 3 4 7 9 12 14	79.8 a.u.
2'F-ANA at 2 5 7 10 11 14 15	45.6 a.u.
2'F-ANA at 1 3 4 7 9 10 12 13 15	77.3 a.u.
2'F-ANA at 3 6 7 10 11 12	623 a.u.
2'F-ANA at 1 2 3 4 5 7 9 12 13 14	48.4 a.u.
2'F-ANA at 2 3 4 6 7 8 9 10	357 a.u.
2'F-ANA at 1 2 3 4 5 6 10 11 12 15	51 a.u.
2'F-ANA at 1 2 3 5 6 9 12 14 15	58.3 a.u.
2'F-ANA at 1 3 4 7 8 9 10 11 14	53.4 a.u.
2'F-ANA at 1 5 6 7 8 9 11 13 14	45.9 a.u.
2'F-ANA at 1 3 4 5 7 9 12 14	263 a.u.
2'F-ANA at 3 4 5 7 9 12 13 14	120 a.u.
2'F-ANA at 2 6 7 9 12	635 a.u.
2'F-ANA at 2 4 10 11 15	137 a.u.
2'F-ANA at 3 4 7 9 10 11 12 13 14 15	169 a.u.
2'F-ANA at 6 8 12 14	283 a.u.
2'F-ANA at 1 2 5 6 7 8 11 12 13 14	48.4 a.u.
2'F-ANA at 1 3 5 10 14	79.6 a.u.
2'F-ANA at 2 8 9 11 12	600 a.u.

Set 4
Target: RING finger protein unkempt homolog, zinc fingers 1-6, GST-SBP tag (UNK, Homo sapiens, UniProt Q9C0B0, residues 30-357)
Sequence of UniProt Q9C0B0 (30-357, looked up): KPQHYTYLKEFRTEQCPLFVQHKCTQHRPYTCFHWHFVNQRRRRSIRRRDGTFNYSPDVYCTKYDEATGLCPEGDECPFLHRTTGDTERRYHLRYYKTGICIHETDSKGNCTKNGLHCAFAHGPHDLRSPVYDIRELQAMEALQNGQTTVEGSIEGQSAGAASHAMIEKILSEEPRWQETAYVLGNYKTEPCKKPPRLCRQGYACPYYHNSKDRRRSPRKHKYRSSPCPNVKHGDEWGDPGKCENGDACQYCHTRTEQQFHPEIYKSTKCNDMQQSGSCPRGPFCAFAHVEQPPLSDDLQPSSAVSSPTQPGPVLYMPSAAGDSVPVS
Method: RNA Bind-n-Seq
Molecule type: RNA
Matrix: in vitro
Tested at: not given
Setting: RNA with constant flanks, human-mouse chimeric sites, ends assumed
Baseline: input RNA pool
Direction: higher = stronger binding
All sequences stand within: GGGAGUUCUACAGUCCGACGAUC … CAACAGAGGAUUGAGCAUCA
Oligonucleotide	bound/input enrichment [ratio]
UAACCACAUCAAGAUGGUUGGGAAGCUGAAGCAGAACUUACUAUUGGCGUGUCUGGUGAUUAGUUCUGUGACUGUGUUUUACCUGGGCCAGCAUGCCAUGGAGUGCCAUCACCGAAUAGA	0.253
GGGACUGAUUCAUCCCAAGGACAGGCAGCCCAGUCUGAUGCCUGGACUGAUGACAGUAUGGAAGGGCCUAGUCAAAAUGUUGAAGCUGAGUCAAUUCAGGAUGCCAUGAGUAUGGAAGAG	0.298
CGCCUGGAUGAGGCGGGUGUUACUGAUGAAGUGCUAGAUUCUGCCAUGCAAGCCUUCCUUCUGGAGGUCAUUGUUAAACAUGGGGAGCCGGCACCUUAUUUAUGUAACAAAGAUCCGUUU	0.107
ACCUCCCCCUCCCGCCUCACCCCACCCCCGCUUUUUGGAAAGUUUUUGGCGUUUCUUUUCCUUCCCCAUACAAAGUGAUUACAGUUUAGAGUCUAUGGGUCUAUCGAUUCACCCUUCGGA	1.32
AGUACUGACUCAGGCGGAUUUUGCAACACCAAGCUCACAGCAGCAGCAUCUUAGUCACAGUAGGGUAGUUUUGGGGCUCUGUGGCCAUGGUUUUACUCACAUGCAGGUUUGGAAAAUGUA	1.66
CAGUCCCCGUGUCCCAGUGCAGGACGAUGUGAACAAAAACUCAAAGCGGACCCUCUACUGUAGUUGAUGAUUCUCGAAAUGUGCUAUUAUUGUUUGUCUUUUUUUUUUUUUUUUUAAAGA	0.765
CCCUCCCGGGCCACCCAACCCCUCCCGGCUCCCCGCCGAGAUCCAGGUUUCUUCUUAUUUCAUAGCAAGCCAGAACAAUGUUCUACGCACAUUUUGUCCUCAGUAAACGAGGGCCUCUGG	1.96
AAAGAACCUCUCUCUGAUGAAGAUGAGGACAGUGAUGAUGAUGUUGAACCUAUUACUGAAUUUCGAUUUGUGCCCAGUGAUAAGUCAGCAUUGGAGGCGAUGUUCACAGCAAUGUGUGAG	0.267
UCCCUGUUGCUGAAUAAAUGGCUUGUAAAGAAGUUUUCCAAGUUGUAAACCCAUGCUGUUAUUAUAGUUGCUGCAAAAUGUUCUUCCUGAUAUUGAUUUUAUUUGUUAACUGAAGGUCUC	0.358
CGGAGCCCUCCUCUCCCCCAGGCCCGAGAUAUAACCCACCAGUGCCUUUUGUCUUCCUGUCAGCUCUGUCAAUCACGCCUGUCCUCUGUCCCUCUCACCAAGUGCCCAAAGUGGGGAGGG	0.58
GUAGCUGGCCAUUAGGAAAUGCUGGUAAUUUCAGUCACUUGCUGAUGACUUCUGAUGACCUAGCAAAUGUUGGCAUUGUUGACUGCUGAGAAGAUACUUCUGAGGACCCACGUCUAAGGU	0.15

Repeated from above (set 3):
Modification	mean fluorescence intensity
2'F-ANA at 3 4 6 7 8 10 12 15	303 a.u.
2'F-ANA at 1 3 4 7 9 12 14	79.8 a.u.
2'F-ANA at 2 5 7 10 11 14 15	45.6 a.u.
2'F-ANA at 1 3 4 7 9 10 12 13 15	77.3 a.u.
2'F-ANA at 3 6 7 10 11 12	623 a.u.
2'F-ANA at 1 2 3 4 5 7 9 12 13 14	48.4 a.u.
2'F-ANA at 2 3 4 6 7 8 9 10	357 a.u.
2'F-ANA at 1 2 3 4 5 6 10 11 12 15	51 a.u.
2'F-ANA at 1 2 3 5 6 9 12 14 15	58.3 a.u.
